Measurements from different studies.
Compare with care: the assays were run in different laboratories. Values joined by “and” are separate records of one study, mostly repeats; a detail may differ. ± marks the error that the study gave.
sdiA: Regulatory protein SdiA (sdiA, Escherichia coli, UniProt P07026)
Sequence of UniProt P27361 (whole entry, looked up): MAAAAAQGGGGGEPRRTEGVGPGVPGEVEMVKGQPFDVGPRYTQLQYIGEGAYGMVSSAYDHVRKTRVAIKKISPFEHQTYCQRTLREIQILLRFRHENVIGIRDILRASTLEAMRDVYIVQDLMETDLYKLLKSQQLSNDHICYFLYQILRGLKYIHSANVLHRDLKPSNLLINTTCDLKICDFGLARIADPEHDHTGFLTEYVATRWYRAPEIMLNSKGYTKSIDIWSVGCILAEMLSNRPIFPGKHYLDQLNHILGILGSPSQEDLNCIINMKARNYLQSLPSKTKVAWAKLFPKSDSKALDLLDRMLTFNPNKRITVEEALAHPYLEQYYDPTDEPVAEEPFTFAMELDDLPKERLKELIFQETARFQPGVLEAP
Sequence of UniProt Q007T0 (whole entry, looked up): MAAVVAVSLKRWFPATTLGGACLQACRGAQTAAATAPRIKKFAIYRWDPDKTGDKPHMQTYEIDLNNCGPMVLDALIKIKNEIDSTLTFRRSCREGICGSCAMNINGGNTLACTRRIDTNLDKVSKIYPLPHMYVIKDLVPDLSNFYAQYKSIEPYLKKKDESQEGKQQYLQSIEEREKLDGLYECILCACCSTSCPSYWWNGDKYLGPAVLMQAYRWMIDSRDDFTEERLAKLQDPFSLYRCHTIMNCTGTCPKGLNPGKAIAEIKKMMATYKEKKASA
Sequence of UniProt D0VWV4 (whole entry, looked up): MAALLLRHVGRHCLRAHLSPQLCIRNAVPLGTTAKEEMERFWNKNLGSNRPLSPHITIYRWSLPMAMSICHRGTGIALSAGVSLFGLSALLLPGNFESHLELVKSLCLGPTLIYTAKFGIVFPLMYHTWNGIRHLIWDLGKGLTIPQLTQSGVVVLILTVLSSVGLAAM
Sequence of UniProt A5GZW8 (whole entry, looked up): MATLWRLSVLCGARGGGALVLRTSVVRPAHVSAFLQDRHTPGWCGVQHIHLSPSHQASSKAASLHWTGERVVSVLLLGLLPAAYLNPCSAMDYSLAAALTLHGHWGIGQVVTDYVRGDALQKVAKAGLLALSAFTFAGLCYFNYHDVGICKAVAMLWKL
Sequence of UniProt P07026 (whole entry, looked up): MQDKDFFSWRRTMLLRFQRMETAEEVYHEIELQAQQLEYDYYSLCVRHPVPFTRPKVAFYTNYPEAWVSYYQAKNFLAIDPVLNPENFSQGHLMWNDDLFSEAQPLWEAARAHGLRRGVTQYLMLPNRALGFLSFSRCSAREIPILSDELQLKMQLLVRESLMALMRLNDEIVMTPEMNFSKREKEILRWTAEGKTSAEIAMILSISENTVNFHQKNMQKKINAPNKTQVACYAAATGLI
Sequence of UniProt O00222 (whole entry, looked up): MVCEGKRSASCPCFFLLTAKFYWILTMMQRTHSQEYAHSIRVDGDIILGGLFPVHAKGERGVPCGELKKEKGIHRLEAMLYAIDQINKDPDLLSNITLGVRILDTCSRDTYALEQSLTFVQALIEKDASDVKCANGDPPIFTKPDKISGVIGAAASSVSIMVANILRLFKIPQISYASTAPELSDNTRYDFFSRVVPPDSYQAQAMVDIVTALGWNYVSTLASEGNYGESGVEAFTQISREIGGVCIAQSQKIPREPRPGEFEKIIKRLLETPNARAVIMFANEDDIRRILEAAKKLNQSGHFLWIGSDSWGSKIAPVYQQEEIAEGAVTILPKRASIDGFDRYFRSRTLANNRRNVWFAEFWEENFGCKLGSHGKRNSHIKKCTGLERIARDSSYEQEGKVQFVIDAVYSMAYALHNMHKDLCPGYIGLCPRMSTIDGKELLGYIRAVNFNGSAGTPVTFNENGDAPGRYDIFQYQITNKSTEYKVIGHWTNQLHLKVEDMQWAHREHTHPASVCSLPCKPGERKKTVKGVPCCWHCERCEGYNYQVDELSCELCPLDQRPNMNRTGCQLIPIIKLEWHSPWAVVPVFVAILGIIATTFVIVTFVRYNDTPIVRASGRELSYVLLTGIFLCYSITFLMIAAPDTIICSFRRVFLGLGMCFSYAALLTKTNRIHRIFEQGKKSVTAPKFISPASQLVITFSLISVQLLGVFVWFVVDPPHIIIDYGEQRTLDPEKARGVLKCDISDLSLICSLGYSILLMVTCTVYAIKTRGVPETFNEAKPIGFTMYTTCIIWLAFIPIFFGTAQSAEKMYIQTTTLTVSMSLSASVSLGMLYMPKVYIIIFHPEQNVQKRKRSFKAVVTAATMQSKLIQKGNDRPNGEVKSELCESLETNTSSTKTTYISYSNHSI
Sequence of UniProt P41968 (whole entry, looked up): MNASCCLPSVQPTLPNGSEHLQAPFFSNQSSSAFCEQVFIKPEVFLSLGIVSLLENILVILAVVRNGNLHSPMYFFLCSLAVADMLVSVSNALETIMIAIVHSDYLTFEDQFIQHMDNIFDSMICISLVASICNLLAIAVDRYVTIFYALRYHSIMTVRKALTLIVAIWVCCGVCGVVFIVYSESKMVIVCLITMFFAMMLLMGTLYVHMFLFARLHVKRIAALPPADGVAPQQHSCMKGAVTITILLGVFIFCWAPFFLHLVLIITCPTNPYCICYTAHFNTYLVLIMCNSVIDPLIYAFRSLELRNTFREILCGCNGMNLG
Sequence of UniProt Q9NWT6 (whole entry, unmodified, looked up): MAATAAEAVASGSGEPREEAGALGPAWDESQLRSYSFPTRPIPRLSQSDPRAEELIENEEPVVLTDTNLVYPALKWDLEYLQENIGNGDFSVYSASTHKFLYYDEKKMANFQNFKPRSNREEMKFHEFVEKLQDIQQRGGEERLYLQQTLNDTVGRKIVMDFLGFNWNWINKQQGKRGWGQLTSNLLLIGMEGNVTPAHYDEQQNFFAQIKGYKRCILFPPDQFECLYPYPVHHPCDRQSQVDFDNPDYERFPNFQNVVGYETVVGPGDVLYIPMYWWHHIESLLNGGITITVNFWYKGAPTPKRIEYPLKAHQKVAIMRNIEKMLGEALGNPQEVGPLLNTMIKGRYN
Sequence of UniProt Q62351 (whole entry, looked up): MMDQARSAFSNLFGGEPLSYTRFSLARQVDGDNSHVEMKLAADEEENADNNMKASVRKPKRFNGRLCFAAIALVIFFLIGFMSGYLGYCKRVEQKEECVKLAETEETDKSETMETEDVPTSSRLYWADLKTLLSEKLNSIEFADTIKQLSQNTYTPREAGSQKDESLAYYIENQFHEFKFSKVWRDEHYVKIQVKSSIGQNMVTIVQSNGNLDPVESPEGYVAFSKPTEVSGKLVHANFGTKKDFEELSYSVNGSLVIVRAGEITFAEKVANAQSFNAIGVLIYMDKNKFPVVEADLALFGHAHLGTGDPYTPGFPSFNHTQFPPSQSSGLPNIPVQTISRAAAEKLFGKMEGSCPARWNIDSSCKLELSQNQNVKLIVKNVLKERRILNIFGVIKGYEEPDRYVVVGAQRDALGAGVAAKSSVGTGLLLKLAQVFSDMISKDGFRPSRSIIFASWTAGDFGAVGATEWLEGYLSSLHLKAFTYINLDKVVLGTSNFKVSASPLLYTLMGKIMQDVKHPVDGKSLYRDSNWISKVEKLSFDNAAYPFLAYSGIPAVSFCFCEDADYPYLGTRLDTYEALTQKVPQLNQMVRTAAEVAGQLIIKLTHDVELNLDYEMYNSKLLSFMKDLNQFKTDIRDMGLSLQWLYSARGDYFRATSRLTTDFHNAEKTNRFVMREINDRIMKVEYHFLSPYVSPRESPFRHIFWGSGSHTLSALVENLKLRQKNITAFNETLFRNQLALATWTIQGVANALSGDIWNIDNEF
Sequence of UniProt P14616 (whole entry, looked up): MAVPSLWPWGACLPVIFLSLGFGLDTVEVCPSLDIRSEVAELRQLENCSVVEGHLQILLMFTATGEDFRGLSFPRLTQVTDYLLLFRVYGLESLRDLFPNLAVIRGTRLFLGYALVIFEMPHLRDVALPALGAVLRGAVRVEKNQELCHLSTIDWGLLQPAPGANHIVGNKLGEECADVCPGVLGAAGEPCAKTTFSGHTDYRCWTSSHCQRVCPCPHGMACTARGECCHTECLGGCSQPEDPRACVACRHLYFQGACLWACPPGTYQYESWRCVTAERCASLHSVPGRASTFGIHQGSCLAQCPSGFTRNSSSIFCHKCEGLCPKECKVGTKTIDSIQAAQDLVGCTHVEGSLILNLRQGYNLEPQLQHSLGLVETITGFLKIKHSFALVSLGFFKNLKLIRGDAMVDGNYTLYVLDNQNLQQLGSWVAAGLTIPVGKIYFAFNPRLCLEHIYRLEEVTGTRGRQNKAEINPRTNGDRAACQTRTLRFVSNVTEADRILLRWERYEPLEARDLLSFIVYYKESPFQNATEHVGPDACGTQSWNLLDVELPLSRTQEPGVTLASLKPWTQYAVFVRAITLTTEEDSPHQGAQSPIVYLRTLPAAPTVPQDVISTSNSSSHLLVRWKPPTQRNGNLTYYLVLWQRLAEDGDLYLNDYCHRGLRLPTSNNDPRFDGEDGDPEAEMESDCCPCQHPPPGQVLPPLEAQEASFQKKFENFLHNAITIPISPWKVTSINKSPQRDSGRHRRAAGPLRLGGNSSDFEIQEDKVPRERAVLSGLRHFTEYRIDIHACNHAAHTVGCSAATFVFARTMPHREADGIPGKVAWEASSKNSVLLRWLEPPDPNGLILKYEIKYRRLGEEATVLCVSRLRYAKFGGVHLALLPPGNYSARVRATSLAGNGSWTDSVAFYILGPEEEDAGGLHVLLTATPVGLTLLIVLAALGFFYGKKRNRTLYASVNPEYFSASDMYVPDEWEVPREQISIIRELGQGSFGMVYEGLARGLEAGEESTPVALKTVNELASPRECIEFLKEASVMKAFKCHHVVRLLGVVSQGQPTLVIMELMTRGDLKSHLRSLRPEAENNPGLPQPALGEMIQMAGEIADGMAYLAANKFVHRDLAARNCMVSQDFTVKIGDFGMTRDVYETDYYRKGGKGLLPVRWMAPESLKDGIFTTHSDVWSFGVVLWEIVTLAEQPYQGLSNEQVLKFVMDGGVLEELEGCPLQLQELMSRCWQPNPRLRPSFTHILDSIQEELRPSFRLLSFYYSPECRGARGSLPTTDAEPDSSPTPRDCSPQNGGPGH

| Compound | target | assay | system | setting | scale | measurement | result |
| --- | --- | --- | --- | --- | --- | --- | --- |
| Nc1ccncc1 | Glutamate receptor 2 (Homo sapiens, UniProt P42262) | ion current, positive allosteric modulator, automated patch clamp | HEK293 | 10 µM | – | potentiation | 87% |
| OB1OCc2cc(F)ccc21 | Genome polyprotein, NS2B-NS3 protease (West Nile virus, UniProt P06935) | enzyme activity, FRET | – | 50 µM, added: substrate 50 µM | – | inhibition | ≤ 10% |
| O=C(Nc1cccnn1)N1CCC(=Cc2cccc(Oc3ccc(C(F)(F)F)cn3)c2)CC1 | HRH4 (Homo sapiens, UniProt Q9H3N8) | radioligand binding | – | 10 µM, added: [3H]histamine | – | inhibition of binding | -3% |
| N[C@@H](CO)C(=O)O | trpB, with alpha subunit (Salmonella enterica, UniProt P0A2K1, Q114A) | L-Trp production | – | concentration not given, closed α-site, added: Cs+ bound at MVC site | relative to: wild type | catalytic efficiency reduction | ~2.5 fold |
| CC[C@@H](C)[C@@H](NC(=O)[C@@H](Cc1ccc(O)cc1)NC(=O)[C@H]1CCCN1C(=O)[C@@H](CCCNC(=N)N)NC(=O)[C@H](N)Cc1c[nH]cn1)C(=O)N[C@H](C)C(=O)N[C@H](Cc1c[nH]cn1)C(=O)N[C@H](CCCNC(=N)N)C(=O)N[C@H](CCCCNC(=O)c1cccc(S(=O)(=O)F)c1)C(=O)N[C@H](Cc1ccc(O)cc1)C(=O)N[C@H](CO)C(=O)N[C@H](Cc1ccccc1)C(N)=O | Transferrin receptor protein 1 (Tfrc, Mus musculus, UniProt Q62351) | flow cytometry | RAW264.7 | 2 h, pH 6, replicate 2, unit not given | relative to: 0 h | surface TFRC expression | 0.562 |
| O=C(O)C(F)(F)C(F)(F)C(F)(F)C(F)(F)C(F)(F)C(F)(F)C(F)(F)F | SLC22A6 (Homo sapiens, UniProt Q4U2R8) | substrate | HEK293 stably expressing | 10 µM | – | linear uptake duration | 2.5 min |
| CC(=O)SCC[N+](C)(C)C | acetylcholinesterase, Homarus americanus | enzyme activity, substrate, Ellman | ventral nerve cord homogenate | pH 7.4 | – | Km | 50 µM |
| CN(C(=O)n1cnc(-c2ccc[n+]([O-])c2)c1)C1CCCCC1 | MC3R (Homo sapiens, UniProt P41968) | radioligand binding | – | 50 µM | – | inhibition | 2% |
| COC(=O)[C@@]1(O)C[C@H]2O[C@]1(C)n1c3ccccc3c3c4c(c5c6ccccc6n2c5c31)C(=O)NC4 | MAPK3 (Homo sapiens, UniProt P27361) | ADP-Glo | – | 12.1 µM, added: MBP substrate | – | kinase activity | 109% and 104% and 96.5% |
| [2H]c1c([2H])c([C@]2([2H])CCCN2C(=O)C(C)(C)Oc2ccc3cn[nH]c3c2)c([2H])c([2H])c1C([2H])([2H])[2H] | TXK (Homo sapiens, UniProt P42681) | KINOMEscan | – | 1 µM | relative to: DMSO control | remaining binding | 87% |
| CSCC[C@H](NC(=O)CNC(=O)[C@H](CC(N)=O)NC(=O)[C@H](CCSC)NC(=O)[C@H](CCSC)NC(=O)[C@H](CCC(N)=O)NC(=O)[C@H](Cc1c[nH]c2ccccc12)NC(=O)[C@@H](N)CCSC)C(=O)N[C@@H](CO)C(=O)N[C@@H](CCC(N)=O)C(N)=O | huntingtin exon 1 bundled fibrils | EPR spectra quantification | – | 8 µM | – | binding to bundled fibrils | ~15% |
| CC[C@H](CO)Nc1nc(NCc2ccccc2)c2ncn(C(C)C)c2n1 | DYRK1B (Homo sapiens, UniProt Q9Y463) | KINOMEscan competition binding | – | 10 µM, primary screen | direction not given | binding score | 7.1 |
| COc1ncccc1-c1cnn2ccc(N3CCN(C(=O)OC(C)C)CC3)nc12 | CDC42BPG (Homo sapiens, UniProt Q6DT37) | KINOMEscan binding | – | 1 µM | relative to: untreated control | remaining binding | 97% |
| COc1cc(F)cc2c(N3CCN(c4ccccc4OC(C)C)CC3)c(C#N)nnc12 | GRM8 (Homo sapiens, UniProt O00222) | positive allosteric modulator | – | concentration not given, added: glutamate | – | activity | inactive |
| COc1cc(N)c(Cl)cc1C(=O)NC1CN2CCC1CC2 (centres unmarked) | TAAR1 (Homo sapiens, UniProt Q96RJ0) | β-arrestin recruitment, TANGO luminescence, item: TA1 | – | concentration not given | relative to: basal luminescence | log2 fold change | 0.124 |
| C#CCCCCNC(=O)CI | ATP6V1A (Homo sapiens, UniProt P38606) | mass spectrometry profiling | Ramos cell lysate | 100 µM over 10 µM, UniProt P38606 | relative to: high over low concentration | reactivity ratio | 0.903 |
| CN1CCN(c2cc(-c3ccncc3)c(-c3ccc4ccccc4c3)nn2)CC1 | GPR68 (Homo sapiens, UniProt Q15743) | agonist, FLIPR | – | 12.5 µM | – | activation | 9.8% |
| O=C(O)COP(=O)(O)O | TPI1 (Saccharomyces cerevisiae, UniProt P00942, Y208T) | enzyme activity, competitive inhibitor, GPDH/NADH-coupled | – | pH 5.7, 25 °C, ionic strength 0.1 NaCl, added: glyceraldehyde 3-phosphate substrate | relative to: mutant over wild type | Ki ratio | 18 |
| COc1ccc(N2C(=O)N(c3c(C)cccc3Cl)Cc3cnc(Nc4ccc(C5CCN(C)CC5)cc4OC)nc32)nc1 | INSRR (Homo sapiens, UniProt P14616) | kinase activity, inhibitor | – | 0.5 µM, kinase IRR | – | inhibition | 9% |

| Compound | target | assay | system | setting | scale | measurement | result |
| --- | --- | --- | --- | --- | --- | --- | --- |
| COc1cc2nccc(Oc3ccc(NC(=O)c4cc5c(n(-c6ccccc6)c4=O)CCCC5=O)nc3)c2cc1OC | FGR (Homo sapiens, UniProt P09769) | cell viability, CellTiter-Glo | Ba/F3 expressing recombinant kinase | – | relative to: FGR IC50 over AXL IC50 | selectivity ratio | > 100 |
| Nc1ncnc2c1ncn2[C@@H]1O[C@H](COP(=O)(O)OP(=O)(O)NP(=O)(O)O)[C@@H](O)[C@H]1O | Cell cycle histidine kinase CckA, cytoplasmic region (Caulobacter vibrioides, UniProt Q9X688) | ITC | – | without c-di-GMP | – | ΔS | 18.1 cal/mol/K |
| O=C(Nc1cccc(OS(=O)(=O)c2ccc(Cl)cc2)c1)c1ccc2ncccc2c1 | P2Y purinoceptor 1 (Meleagris gallopavo, UniProt P49652) | receptor activation, antagonist, calcium mobilization | 1321N1 cells expressing P2Y1 receptor | 100 µM, added: ADP 500 nM | relative to: ADP alone | activity | ~65% |
| O=C(NNC(=O)c1csnn1)c1ccc(Cl)cc1 | Acetyl-CoA synthetase (Cryptococcus neoformans, UniProt J9VFT1) | – | – | 6.25 µM | – | remaining activity | 23.2% |
| O=C(Cc1ccc2ccccc2c1)N[C@H]1CCOC1=O | sdiA | – | – | – | – | Emax | 109% |
| COc1cc(Nc2ncc(F)c(Nc3ccc4c(n3)NC(=O)C(C)(C)O4)n2)cc(OC)c1OC | GRK7 (Homo sapiens, UniProt Q8WTQ7) | KINOMEscan | – | 10 µM | – | inhibition | 49% |
| COc1ccc(F)cc1C(=O)NCc1ccc(-c2nn([C@@H](C)C(F)(F)F)c(N)c2C(N)=O)cc1 | MAP2K1 (Homo sapiens, UniProt Q02750) | enzyme activity | – | – | relative to: MAP2K1 over BTK | selectivity ratio | 46.7 |
| O=C(O)CCC(=O)C(=O)O | HIF1AN (Homo sapiens, UniProt Q9NWT6, Q147A) | cosubstrate | – | tunnel mutant Q147A | – | KI over Km | ~20 fold |
| C[C@H]1CN(c2n[nH]c3nc(N[C@H]4CC[C@H](NS(=O)(=O)CCC(F)(F)F)CC4)ncc23)CCO1 | TLK2 (Homo sapiens, UniProt Q86UE8) | inhibitor, Kinobeads competition profiling | – | 0.8 µM | relative to: vehicle | relative abundance | 1.2 |
| O=C(Nc1cnccc1Cl)N1CCN(Cc2ccc3c(c2)OC(F)(F)O3)CC1 | Tmem97 (Rattus norvegicus, UniProt Q5U3Y7) | radioligand binding, inhibitor | – | 50 µM, rat, added: [3H]ifenprodil | – | inhibition | 69% |
| NCCc1c[nH]c2ccc(O)cc12 | AANAT1 pig | substrate, DTNB colorimetric | – | added: acetyl-CoA | – | Km | 310 ± 170 µM |
| CCOC(=O)CC(SP(=O)(OC)OC)C(=O)OCC (centres unmarked) | uncharacterized protein (Anopheles coluzzii, UniProt A0A6E8VQK1) | enzyme activity, inhibitor | Sf9 cell homogenate | 2.294 µM, 0.1667 h, added: α-naphthyl acetate substrate | relative to: no inhibitor | remaining activity | 4.85% |
| CC=O | ADH1 (Saccharomyces cerevisiae, UniProt P00330, H49Q) | enzyme activity, substrate | – | pH 7.3, 30 °C | – | kcat/Km | 250 mM⁻¹ s⁻¹ |
| CCCCCCCCCCCC(=O)N[C@H]1CCOC1=O | sdiA | – | – | – | – | Emax | 93.7% |
| O=C(c1ccc(Cl)cc1)N1CCN2C(=O)N(OC(=O)N3CCOc4ccccc43)C(=O)C2C1 (centres unmarked) | Kynurenine formamidase (AFMID, Homo sapiens, UniProt Q63HM1) | MS-based ABPP | SW-620 conditioned medium | 10 µM, 1 h, 37 °C | relative to: compound over DMSO, lower = more inhibition | median protein ratio | 1.27 |
| Cc1cc(SC2=C(O)C[C@@](CCc3ccc(N)cc3)(C(C)C)OC2=O)c(C(C)(C)C)cc1CO | FABP1 (Homo sapiens, UniProt P07148) | affinity selection mass spectrometry | – | 100 nM, added: pooled compounds | relative to: other proteins | binding fold change | 20.3 |
| C=C(CN(C(=O)c1c(C(F)F)nn(C)c1F)C1CC1)c1ccc(Cl)cc1Cl | SDHD/SDHC/SDHB (Sus scrofa, UniProt A5GZW8+D0VWV4+Q007T0) | enzyme activity, inhibitor, DCIP reduction | pig | 0.06 µM, added: DCIP 10 µM | – | reaction velocity | 0.00541 µM/s and 0.00469 µM/s |
| O=C(Nc1ccc2c(c1)B(O)OC2)c1ccc(OCc2ccc(Cl)cc2)cc1 | Genome polyprotein, NS2B-NS3 protease (dengue virus type 2, UniProt P29990) | enzyme activity, FRET | dengue virus serotype 2 | 50 µM, added: substrate 50 µM | – | inhibition | ≤ 10% |
| CN(CC(=O)O)C(=N)NP(=O)(O)O | CKMT1A (Homo sapiens, UniProt P12532, H99K) | substrate, Kinase-Glo luminescence | – | pH 7.0, reverse reaction, H61K mutant, added: second substrate in excess | – | kcat | 5 ± 1 s⁻¹ |
